Published values gathered from unrelated publications.
Each line is one published result; not all experiments were run side by side. “And” joins repeats or separate records; there may be more than shown. ± gives the spread as reported.
Genome polyprotein NS3 helicase domain: Genome polyprotein, NS3 helicase domain (Hepatitis C virus genotype 1b, UniProt Q9WMX2)
WD repeat-containing protein 91 WD40 domain, residues 392–747: WD repeat-containing protein 91, WD40 domain, residues 392–747 (Homo sapiens, UniProt A4D1P6)
CALM1 Ca2+-bound N-lobe: Calmodulin-1, Ca2+-bound N-lobe (CALM1, Homo sapiens, UniProt P0DP23)

| Compound | tested on | test | test system | conditions | how to read | endpoint | result |
| --- | --- | --- | --- | --- | --- | --- | --- |
| N#C/C(=C\c1ccc(O)c(O)c1)C(=O)NCc1ccccc1 | Genome polyprotein NS3 helicase domain | DNA binding, inhibitor | hepatitis C virus | 100 µM, with: Cy5-dT15 DNA |  | inhibition | 0% |
| NCCCS(=O)(=O)O | Sodium- and chloride-dependent taurine transporter (SLC6A6, Homo sapiens, UniProt P31641, Y138A) | binding, microscale thermophoresis |  | 1 mM, room temperature, with: 50 nM labelled protein | higher = more binding | normalised MST signal | 0.85 |
| CC1=C(/C=C/C(C)=C/C=C/C(C)=C\C(=O)O)C(C)(C)CCC1 | Genome polyprotein NS3 helicase domain | DNA binding, inhibitor | hepatitis C virus | 100 µM, with: Cy5-dT15 DNA |  | inhibition | 1% |
| O=C(c1ccc(C(=O)N2CCC(N3CCCC3)CC2)c(Nc2ccccc2)c1)N1CCC(N2CCCC2)CC1 | Lethal(3)malignant brain tumor-like protein 3 (Homo sapiens, UniProt Q96JM7) | FRAP | human cells | 0.1 µM |  | diffusion coefficient | 0.0507 µm2/s |
| O=C(O)c1ccccc1Nc1cccc(OCc2ccc3ccccc3n2)c1 | Genome polyprotein NS3 helicase domain | DNA binding, inhibitor | hepatitis C virus | 100 µM, with: Cy5-dT15 DNA |  | inhibition | 0% |
| O=C(c1cc2cccn2cn1)N1CCN(c2ccc([N+](=O)[O-])c3cnccc23)CC1 | WD repeat-containing protein 91 WD40 domain, residues 392–747 | binding, SPR single-concentration screen |  | 45 µM |  | SPR response | 11.9 RU and 4.5 RU |
| COc1cc(O)c2c(=O)c(O[C@@H]3O[C@H](CO)[C@@H](O)[C@H](O)[C@H]3O)c(-c3ccc(O[C@@H]4O[C@H](CO)[C@@H](O)[C@H](O)[C@H]4O)cc3)oc2c1 | Estrogen receptor (ESR1, Homo sapiens, UniProt P03372) | array formation | PRL-HeLa |  | relative to: EC50 ERβ over EC50 ERα | selectivity ratio | 0.81 |
| COc1cc(Cc2cnc(N)nc2N)cc(OC)c1OC | Genome polyprotein NS3 helicase domain |  |  | 100 µM |  | inhibition | 1% |
| CC[C@H](C)[C@H](NC(=O)[C@H](C)NC(=O)[C@H](CCSC)NC(=O)[C@H](C)NC(=O)[C@H](C)NC(=O)[C@H](Cc1ccc(O)cc1)NC(=O)[C@@H](NC(=O)[C@H](CCCCN)NC(=O)CNC(=O)[C@@H](NC(=O)[C@@H](NC(=O)[C@H](CCSC)NC(=O)[C@H](Cc1c[nH]cn1)NC(=O)CN)[C@@H](C)O)C(C)C)[C@@H](C)CC)C(=O)N[C@@H](CCSC)C(=O)N[C@@H](CCC(=O)O)C(=O)N[C@@H](Cc1ccc(O)cc1)C(=O)N[C@@H](Cc1ccc(O)cc1)C(=O)N[C@@H](CCCNC(=N)N)C(=O)N[C@@H](CCC(N)=O)C(=O)N[C@@H](CO)C(=O)N[C@@H](CCCCN)C(=O)N[C@@H](C)C(=O)N[C@@H](CCCCN)C(=O)N[C@@H](CCCCN)C(=O)N[C@@H](CC(C)C)C(=O)N[C@@H](CCC(N)=O)C(=O)N[C@@H](C)C(=O)N[C@@H](CCSC)C(=O)N[C@@H](CCCNC(=N)N)C(=O)O | CALM1 Ca2+-bound N-lobe | binding, isothermal titration calorimetry |  | pH 7.4, 15 °C, N-lobe, CaV2.1 IQ domain, with: Ca2+ |  | ΔH | -3.03 ± 0.22 kcal/mol |
| NC(=O)NC1NC(=O)NC1=O (centres unmarked) | N-alpha-acetyltransferase 80 (NAA80, Homo sapiens, UniProt Q93015) | substrate, DTNB |  | 2 mM, 30 min, 37 °C, with: acetyl-CoA 500 µM |  | product formation | -0.22 µM |
| N[C@@H](C(=O)N[C@@H]1C(=O)N2C(C(=O)O)=C(Cl)CS[C@H]12)c1ccccc1 | Genome polyprotein NS3 helicase domain | DNA binding, inhibitor | hepatitis C virus | 100 µM, with: Cy5-dT15 DNA |  | inhibition | 0% |
| CC[C@H](C)[C@H](NC(=O)[C@H](CCSC)NC(=O)[C@H](CCSC)NC(=O)[C@H](C)NC(=O)[C@H](C)NC(=O)[C@H](Cc1ccc(O)cc1)NC(=O)[C@@H](NC(=O)[C@H](CCCCN)NC(=O)CNC(=O)[C@@H](NC(=O)[C@@H](NC(=O)[C@H](CCSC)NC(=O)[C@H](Cc1c[nH]cn1)NC(=O)CN)[C@@H](C)O)C(C)C)[C@@H](C)CC)C(=O)N[C@@H](C)C(=O)N[C@@H](CCC(=O)O)C(=O)N[C@@H](Cc1ccc(O)cc1)C(=O)N[C@@H](Cc1ccc(O)cc1)C(=O)N[C@@H](CCCNC(=N)N)C(=O)N[C@@H](CCC(N)=O)C(=O)N[C@@H](CO)C(=O)N[C@@H](CCCCN)C(=O)N[C@@H](C)C(=O)N[C@@H](CCCCN)C(=O)N[C@@H](CCCCN)C(=O)N[C@@H](CC(C)C)C(=O)N[C@@H](CCC(N)=O)C(=O)N[C@@H](C)C(=O)N[C@@H](CCSC)C(=O)N[C@@H](CCCNC(=N)N)C(=O)O | CALM1 Ca2+-bound N-lobe | binding, isothermal titration calorimetry |  | pH 7.4, 15 °C, N-lobe, CaV2.1 IQ domain, with: Ca2+ |  | ΔS | 25.9 ± 4.1 cal/mol/K |
| CN1CCN(c2cc(-c3ccncc3)c(-c3ccc4ccccc4c3)nn2)CC1 | Endothelin-1 receptor (EDNRA, Homo sapiens, UniProt P25101) | agonist, FLIPR |  | 12.5 µM |  | activation | -8.1% |
| O=C1NC(=O)C(c2ccccc2)(c2ccccc2)N1 | Glutamate receptor 2 (Homo sapiens, UniProt P42262) | ion current, agonist, SyncroPatch patch clamp | HEK293 | 10 µM |  | activation | 4% |
| Cc1cccc(N2CC(C(=O)O)CC2=O)c1 (centres unmarked) | Transducin-like enhancer protein 4 (TLE4, Homo sapiens, UniProt Q04727) | binding, affinity selection mass spectrometry |  |  | relative to: other proteins in batch | log fold enrichment | -0.145 |
| O=O | Hypoxia-inducible factor 1-alpha inhibitor (HIF1AN, Homo sapiens, UniProt Q9NWT6, E105A) | enzyme activity, substrate, rates, initial, MALDI-TOF MS |  | varied, pH 7.00, 37.0 °C, E105A, with: CTAD peptide 80 µM, 2-oxoglutarate 100 µM |  | apparent kcat | 0.7 ± 0.05 s⁻¹ |

| Compound | tested on | test | test system | conditions | how to read | endpoint | result |
| --- | --- | --- | --- | --- | --- | --- | --- |
| Cn1cc(-c2ccc(-c3cncc(Cl)c3N3CCC4(CCNC4=O)CC3)cc2)cn1 | COLO 205 | microarray, item: FLOT1 |  | concentration not given, 2 h, gene set Flotillin-1 | relative to: untreated cells | fold change in expression | 2.08 |
| COc1c(C#N)cccc1CC(=O)Nc1ccc2c(c1)CCCN2C(=O)c1ccccc1 | WD repeat-containing protein 91 WD40 domain, residues 392–747 | binding, SPR single-concentration screen |  | 45 µM |  | SPR response | 52.1 RU and 55.7 RU |
| CN(C)CCNS(=O)(=O)c1ccc(N/C=C2\C(=O)Nc3ccccc32)cc1 | Cyclin-dependent kinase 2, with cyclin A (CDK2, Homo sapiens, UniProt P24941) | bio-layer interferometry (Octet RED) |  | 298 K, CDK2-cyclin A complex, averaged |  | Kd | 840 nM |
| CC12CC3CC(C)(C1)CC(N)(C3)C2 | Voltage-gated potassium channel, KQT; KCNQ2(Kv7.2)/KCNQ3(Kv7.3) (KCNQ3/KCNQ2, Homo sapiens, UniProt O43525+O43526) | ion current, antagonist, SyncroPatch patch clamp | HEK293 | 10 µM |  | inhibition | 3% |
| CCCCCCCC(=O)c1c(O)cc(O)cc1CC(=O)OCC | Nuclear receptor subfamily 4 group A member 3, ligand-binding domain (Homo sapiens, UniProt Q92570) | reporter gene, Gal4 hybrid reporter |  | 10 µM | relative to: vehicle | activation | 0.98 fold |
| Nc1ncnc2c1ncn2[C@@H]1O[C@H](COP(=O)(O)OP(=O)(O)OP(=O)(O)O)[C@@H](O)[C@H]1O | P2X purinoceptor 7 (P2rx7, Rattus norvegicus, UniProt Q64663, I214A/Q143A/R125A) | ion current, agonist, two-electrode voltage clamp | Xenopus oocytes | 11.1 µM |  | normalized current | 0 and 0.0187 |
| Nc1nc2c(ncn2[C@@H]2O[C@H](COP(=O)(O)O)[C@@H](O)[C@H]2O)c(=O)[nH]1 | GUK1 (Homo sapiens, UniProt Q16774, S37A) | enzyme activity, NADH-coupled |  | 2000 µM |  | reaction rate | 5.08 s⁻¹ and 6.37 s⁻¹ and 4.47 s⁻¹ |
| CC[C@@H]1[C@H](F)C(=O)N[C@@H]1COc1nccc2cc(C(N)=O)c(OC)cc12 | Dual specificity mitogen-activated protein kinase kinase 4 (MAP2K4, Homo sapiens, UniProt P45985) | ATP-site probe binding, ActivX profiling | THP-1 cell lysate | 0.2 mM, Lys2 site |  | inhibition | 15.8% |
| CCN1CCCC1CNC(=O)c1cc(S(N)(=O)=O)ccc1OC (centres unmarked) | D(3) dopamine receptor (DRD3, Homo sapiens, UniProt P35462) | ERK1/2 phosphorylation, antagonist, AlphaScreen SureFire |  |  |  | maximal inhibition | 100 ± 0.1% |
| Cn1cc(-n2cnc3c(NCc4nc5cc(Cl)c(Cl)cc5[nH]4)nc(N4CCOCC4)nc32)cn1 | Cyclin-dependent kinase 12, with cyclin K (CDK12, Homo sapiens, UniProt Q9NYV4) | kinase activity, inhibitor, ADP-Glo |  | 0.2222 µM |  | inhibition | 65.2% |
| CC[C@H](C)[C@@H]1NC(=O)[C@H](C)NC(=O)[C@H]([C@@H](C)CC)NC(=O)[C@H](CCC(N)=O)NC(=O)[C@H](C)NC(=O)[C@H](CCCNC(=N)N)NC(=O)[C@H](C(C)C)NC(=O)[C@H](CC(C)C)NC(=O)[C@H](CCC(=O)O)NC(=O)[C@H](CCCNC(=N)N)NC(=O)CNC(=O)[C@@H](NC(=O)[C@H](CC(C)C)NC(=O)[C@H](CCCCN)NC(=O)[C@@H](NC(=O)[C@@H](NC(=O)[C@H](CCC(=O)O)NC(=O)[C@H](CCC(=O)O)NC(=O)[C@H](CCSC)NC(=O)[C@H](Cc2c[nH]c3ccccc23)NC(=O)[C@H](CO)NC(=O)[C@@H](N)CC(=O)O)C(C)C)[C@@H](C)CC)CSSC[C@@H]2NC(=O)[C@@H](NC(=O)[C@H](CCCCN)NC(=O)[C@H](CC(N)=O)NC(=O)[C@H](C)NC(=O)[C@H](CC(C)C)NC(=O)[C@H](C)NC(=O)[C@H](CO)NC(=O)[C@H](Cc3ccc(O)cc3)NC(=O)[C@H](CC(C)C)NC(=O)[C@H](CCC(N)=O)NC(=O)c3ccc(-c4c5ccc(=[N+](C)C)cc-5oc5cc(N(C)C)ccc45)c(C(=O)[O-])c3)CSSC[C@H](NC(=O)CNC(=O)[C@H](C(C)C)NC(=O)[C@H](Cc3c[nH]cn3)NC2=O)C(=O)N[C@@H]([C@@H](C)O)C(=O)N[C@@H](CCCCN)C(=O)N[C@@H](CCCNC(=N)N)C(=O)N[C@@H](CO)C(=O)N[C@@H](CC(C)C)C(=O)N[C@@H](C)C(=O)N[C@@H](CCCNC(=N)N)C(=O)N[C@@H](Cc2ccccc2)C(=O)N[C@H](C(=O)O)CSSC[C@@H](C(=O)NCC(=O)N[C@@H](CCSC)C(=O)N[C@@H](CO)C(=O)N[C@H](C(=O)N[C@@H](Cc2c[nH]c3ccccc23)C(=O)N[C@@H](CO)C(=O)O)[C@@H](C)O)NC1=O | Relaxin receptor 1 (RXFP1, Homo sapiens, UniProt Q9HBX9, F76A/Y80A) | binding, NanoBRET |  | concentration not given, with: relaxin 100 nM |  | fast dissociation fraction | 65.5% |
| C=CC(=O)N1CCC(COCC(=O)N2CCN(c3nc(-c4cnc(N)nc4C(F)F)nc(N4CCOC[C@@H]4C)n3)CC2)CC1 | Serine/threonine-protein kinase RIO3 (RIOK3, Homo sapiens, UniProt O14730) | KINOMEscan |  | 1 µM |  | remaining binding | 100% |
| O=C(O)c1cccc(CSc2nnc(-c3ccncc3)o2)c1 | Cyclin-dependent kinase 2 (CDK2, Homo sapiens, UniProt P24941) | binding |  |  |  | Kd | > 100000 nM |
| CCN1CCC[C@H]1CNC(=O)c1c(O)c(Cl)cc(Cl)c1OC | Trace amine-associated receptor 9 (TAAR9, Homo sapiens, UniProt Q96RI9) | β-arrestin recruitment, TANGO luminescence, item: TAAR9 |  | concentration not given | relative to: basal luminescence | log2 fold change | 0.597 |
| O=c1[nH]c(=S)[nH]c(-c2ccccc2)c1Cc1c(O)ccc2ccccc12 | Genome polyprotein NS3 helicase domain | DNA binding, inhibitor | hepatitis C virus | 100 µM, with: Cy5-dT15 DNA |  | inhibition | 0% |
| C1=C/COCc2cc(ccc2OCCN2CCCC2)Nc2nccc(n2)-c2cccc(c2)COC/1 | Serine/threonine-protein kinase WNK1 (WNK1, Homo sapiens, UniProt Q9H4A3) |  |  | concentration not given | relative to: DMSO control | remaining binding | 81% |

Repeated from above:
| Compound | tested on | test | test system | conditions | how to read | endpoint | result |
| --- | --- | --- | --- | --- | --- | --- | --- |
| Nc1nc2c(ncn2[C@@H]2O[C@H](COP(=O)(O)O)[C@@H](O)[C@H]2O)c(=O)[nH]1 | GUK1 (Homo sapiens, UniProt Q16774, S37A) | enzyme activity, NADH-coupled |  | 2000 µM |  | reaction rate | 5.08 s⁻¹ and 6.37 s⁻¹ and 4.47 s⁻¹ |
| Nc1ncnc2c1ncn2[C@@H]1O[C@H](COP(=O)(O)OP(=O)(O)OP(=O)(O)O)[C@@H](O)[C@H]1O | P2X purinoceptor 7 (P2rx7, Rattus norvegicus, UniProt Q64663, I214A/Q143A/R125A) | ion current, agonist, two-electrode voltage clamp | Xenopus oocytes | 11.1 µM |  | normalized current | 0 and 0.0187 |
